Assay results gathered from unrelated publications.
A part holds a random share of what one study measured. Substitutions count along the parent as printed.

Set 1
Target: Histone acetyltransferase KAT6A, winged helix 2, GST fusion (KAT6A, Homo sapiens, UniProt Q92794, residues 85-181)
Method: protein binding microarray
Molecule type: double-stranded DNA, one strand shown
Matrix: in vitro
Tested at: not given
Setting: 8-mer, flanks averaged, mean of 2 arrays, mostly near background
Baseline: not given
Reading: higher = stronger binding
Target sequence (chain): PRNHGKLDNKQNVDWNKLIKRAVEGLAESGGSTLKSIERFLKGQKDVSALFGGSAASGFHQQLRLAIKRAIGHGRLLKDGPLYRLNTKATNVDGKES
`TGAATCAA` gave an E-score of 0.196.
The E-score of `CATGCTAG` is reported as -0.116.
`GACGTAAA` has an E-score of 0.0158.
`GCTCGTCA` has an E-score of 0.114.
For `AAAAAGGC`, the E-score was -0.0663.
For `TAGTATAA`, the E-score was 0.195.
For `ATAGATGG`, the E-score was -0.163.
For `AACACAAG`, the E-score was -0.163.
`CCTAACCA` has an E-score of 0.023.
`ATGGGGAA` gave an E-score of -0.0332.
For `ACCACGTC`, the E-score was -0.208.
`AGCGATTG` gave an E-score of -0.129.
For `ATCTCATG`, the E-score was -0.00732.
For `CCGAGAAC`, the E-score was 0.136.
`AGCTTTGA` has an E-score of 0.0745.
For `AGGCATAC`, the E-score was -0.0393.

Set 2
Target: CCNB2, cyclin fold, Cln2 fusion (human)
Method: yeast growth competition, sequencing
Matrix: yeast
Setting: weak parent motif
Baseline: not given
Reading: higher = stronger binding
Parent: E2F2 docking peptide (human); LPAKRKLDLEGIG
`K6A` — result for “normalised enrichment score”: 0.226.
For `R5K`, “normalised enrichment score” read 0.275.
`E10A` — result for “normalised enrichment score”: 0.412.
For `I12A`, “normalised enrichment score” read 0.104.
`K4A`: “normalised enrichment score” 0.564.
Under “normalised enrichment score”, `G11A` is recorded as -0.2.
`L7A` — result for “normalised enrichment score”: -0.0317.

Set 3
Target: PABPC1L2, full length, GST fusion (mouse, UniProt A0ABA7IW68)
Method: RNAcompete
Molecule type: RNA
Matrix: in vitro
Tested at: 20 nM
Setting: 7-mer, probes averaged, single round
Baseline: mean of 7-mers
Reading: higher = stronger binding
Construct (chain): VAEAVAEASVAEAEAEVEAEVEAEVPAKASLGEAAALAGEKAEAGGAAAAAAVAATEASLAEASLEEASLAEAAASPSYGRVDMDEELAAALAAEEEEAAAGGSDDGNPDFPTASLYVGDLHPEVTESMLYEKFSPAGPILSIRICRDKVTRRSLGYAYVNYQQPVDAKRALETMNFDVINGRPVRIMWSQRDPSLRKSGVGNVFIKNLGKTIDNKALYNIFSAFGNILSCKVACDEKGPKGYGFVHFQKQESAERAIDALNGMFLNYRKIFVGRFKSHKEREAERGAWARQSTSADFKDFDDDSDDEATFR
For `CGCGCUG`, the 7-mer Z-score was -0.331.
For `GAACACC`, the 7-mer Z-score was -0.166.
For `ACGGCCG`, the 7-mer Z-score was -0.251.
`CCUGCAG` gave a 7-mer Z-score of -0.393.
For `CGCCUAA`, the 7-mer Z-score was -0.374.
With `CUAUCGA` the 7-mer Z-score was -0.282.
With `CGAUAAC` the 7-mer Z-score was -0.115.
`GCUGUGU` gave a 7-mer Z-score of -0.266.
With `CGUCAAG` the 7-mer Z-score was -0.32.
`GCCAUAU` has a 7-mer Z-score of -0.188.
`UACAAUU` has a 7-mer Z-score of -0.0826.
`GGAUUUC` gave a 7-mer Z-score of -0.291.
`CGAAUGU` has a 7-mer Z-score of -0.228.
With `CGGCAUU` the 7-mer Z-score was -0.193.
`CGCGUCG` has a 7-mer Z-score of -0.315.
With `UUAGCUU` the 7-mer Z-score was -0.253.
The 7-mer Z-score of `CAGAGAU` is reported as -0.0246.

Set 4
Target: Sal-like protein 4, full length isoform A (SALL4, Homo sapiens, UniProt Q9UJQ4, residues 1-1053)
Chain of UniProt Q9UJQ4 (whole entry, looked up): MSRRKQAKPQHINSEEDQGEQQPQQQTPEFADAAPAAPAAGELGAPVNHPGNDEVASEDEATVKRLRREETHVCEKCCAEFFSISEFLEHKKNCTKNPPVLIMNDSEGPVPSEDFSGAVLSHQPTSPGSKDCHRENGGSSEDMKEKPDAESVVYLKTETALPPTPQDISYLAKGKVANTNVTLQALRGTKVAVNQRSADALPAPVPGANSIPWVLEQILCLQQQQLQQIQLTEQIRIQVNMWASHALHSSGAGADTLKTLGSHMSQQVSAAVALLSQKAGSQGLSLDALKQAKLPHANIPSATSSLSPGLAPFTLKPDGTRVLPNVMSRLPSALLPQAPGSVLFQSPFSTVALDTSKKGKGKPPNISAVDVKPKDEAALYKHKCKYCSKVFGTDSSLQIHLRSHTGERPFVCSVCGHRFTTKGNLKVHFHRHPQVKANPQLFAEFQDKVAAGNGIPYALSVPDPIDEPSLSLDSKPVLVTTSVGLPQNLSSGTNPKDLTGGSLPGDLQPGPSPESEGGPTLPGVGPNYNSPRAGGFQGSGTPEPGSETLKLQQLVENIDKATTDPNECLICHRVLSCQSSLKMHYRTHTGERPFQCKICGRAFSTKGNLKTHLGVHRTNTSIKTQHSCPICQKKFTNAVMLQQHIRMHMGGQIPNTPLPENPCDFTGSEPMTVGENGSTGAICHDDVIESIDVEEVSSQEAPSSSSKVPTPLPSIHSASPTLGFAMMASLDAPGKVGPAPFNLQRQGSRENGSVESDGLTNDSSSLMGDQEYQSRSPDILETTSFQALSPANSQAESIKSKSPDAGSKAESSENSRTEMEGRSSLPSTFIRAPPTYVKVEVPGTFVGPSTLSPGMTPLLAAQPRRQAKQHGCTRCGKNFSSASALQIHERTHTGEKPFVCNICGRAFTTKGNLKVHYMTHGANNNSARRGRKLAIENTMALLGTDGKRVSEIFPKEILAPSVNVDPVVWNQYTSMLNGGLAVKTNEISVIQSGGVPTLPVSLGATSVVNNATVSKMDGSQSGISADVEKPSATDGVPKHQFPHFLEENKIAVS
Method: universal PBM
Molecule type: double-stranded DNA, one strand shown
Matrix: in vitro
Tested at: 600 nM
Setting: 8-mer, flanks averaged, mean of replicates
Reading: higher = stronger binding
For `AAATCTCG`, the E-score was 0.15.
The E-score of `AGGCGCCC` is reported as -0.393.
For `CCTCCCCG`, the E-score was -0.237.
`AGCCGGCC` has an E-score of -0.332.
`CCAGGGAA` has an E-score of -0.287.
With `CAATTACA` the E-score was 0.275.
`ATTAGCGG` has an E-score of -0.0909.
`CTCCATCC` gave an E-score of -0.154.
The E-score of `TAGAAATA` is reported as 0.308.
With `CGGTGGAG` the E-score was -0.256.
`AACCATCC` has an E-score of -0.0825.
The E-score of `CGTCGTAG` is reported as -0.115.
For `AGGGGCCA`, the E-score was -0.362.
The E-score of `GCAAAACC` is reported as -0.0422.
The E-score of `CATCCTCG` is reported as -0.024.
The E-score of `TAGGCTGA` is reported as -0.0728.
The E-score of `AAATACGG` is reported as 0.192.
With `TATTACGA` the E-score was 0.342.
The E-score of `ACGGTCAG` is reported as -0.107.
With `GTCAAGAC` the E-score was -0.153.

Set 5
Target: Interferon regulatory factor 7, full length, phosphomimetic (IRF7, Homo sapiens, UniProt Q92985, residues 1-503, S101K/S471D/S472D/S475D/S476D/S477D/S483D/S484D/S487D)
Method: protein-binding microarray
Molecule type: double-stranded DNA, one strand shown
Matrix: in vitro
Tested at: 250 nM
Setting: 60-bp whole probe
Together with: salmon DNA 0.4 mg/ml
Baseline: random background probes
Reading: higher = stronger binding
Constant ends, left off below: GCCTAGCAC … GTCTTGATTCGCTTGACGCTGCTG
Target sequence (chain): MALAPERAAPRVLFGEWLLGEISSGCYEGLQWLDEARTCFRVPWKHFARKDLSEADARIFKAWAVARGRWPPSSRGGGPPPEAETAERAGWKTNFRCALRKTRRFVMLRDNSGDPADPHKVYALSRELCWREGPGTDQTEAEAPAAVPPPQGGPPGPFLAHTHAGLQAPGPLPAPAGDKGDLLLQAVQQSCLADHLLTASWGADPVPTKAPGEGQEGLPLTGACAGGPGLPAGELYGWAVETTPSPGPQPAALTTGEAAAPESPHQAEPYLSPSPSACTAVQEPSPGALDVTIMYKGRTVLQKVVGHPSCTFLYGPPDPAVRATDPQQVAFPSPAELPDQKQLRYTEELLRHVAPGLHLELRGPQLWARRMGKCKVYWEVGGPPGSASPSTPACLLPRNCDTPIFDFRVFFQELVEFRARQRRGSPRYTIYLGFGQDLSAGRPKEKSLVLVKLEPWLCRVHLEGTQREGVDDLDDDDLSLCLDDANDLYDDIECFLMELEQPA
With `GACGAACGGAGTATCGAGACGTGCTAG` the log fluorescence was -0.164 z-score.
With `TTAGGTATCCTTCTCCCTTAGTGCTAG` the log fluorescence was 0.626 z-score.
With `GACGGTCTTGGTATCGGGACGTGCTAG` the log fluorescence was 0.113 z-score.
`TTAGGACTGCTACTGCTTTAGTGCTAG` has a log fluorescence of -0.458 z-score.
The log fluorescence of `TCAACTTTCCAAAACATACTGTGCTAG` is reported as 0.576 z-score.
With `TTGGGACTGGGGACTGGGTTAGTGCTA` the log fluorescence was -0.558 z-score.
`TCAGAGTCCTGTTTGATACTGTGCTAG` gave a log fluorescence of 0.955 z-score.
`TCAACTCTAATATTGAGACTGTGCTAG` gave a log fluorescence of 0.129 z-score.
With `TTAGATAGCGGGACTGGATTAGTGCTA` the log fluorescence was -0.315 z-score.
With `TAAGAACTGAGTTTCGATTAGTGCTAG` the log fluorescence was 8.57 z-score.
For `GACCATTTCAGTCTCGAGACGTGCTAG`, the log fluorescence was 1.88 z-score.
With `TCATATATTTGCTTCAGACTGTGCTAG` the log fluorescence was 0.738 z-score.
With `GACGATCTCAGTCTCGAGATGTGCTAG` the log fluorescence was 0.537 z-score.
With `TCACCTGTCCTTTTCTTACTGTGCTAG` the log fluorescence was 0.544 z-score.
The log fluorescence of `CTCCCTCTGTAAGTCAGCACGTGCTAG` is reported as 0.0342 z-score.
The log fluorescence of `TTTCTTCTAGACTTCTCCATGTGCTAG` is reported as 1.45 z-score.
`GACGGATTGCTACTGCTGACGTGCTAG` has a log fluorescence of -0.616 z-score.
The log fluorescence of `TTAGAACTGAGTAGCGATTAGTGCTAG` is reported as -0.0522 z-score.
`TTAGGTATAGGTTTCGGTTAGTGCTAG` gave a log fluorescence of 7.65 z-score.

Set 6
Target: ABI1, truncated, D143A, DHFR fusion (Arabidopsis thaliana)
Method: DHFR PCA, deep sequencing
Matrix: yeast
Setting: methotrexate growth selection, single substitutions
Together with: (+)-ABA 0.39 µM
Baseline: wild-type fitted maximum
Reading: higher = stronger binding
Parent: PYL1, truncated, DHFR fusion (Arabidopsis thaliana); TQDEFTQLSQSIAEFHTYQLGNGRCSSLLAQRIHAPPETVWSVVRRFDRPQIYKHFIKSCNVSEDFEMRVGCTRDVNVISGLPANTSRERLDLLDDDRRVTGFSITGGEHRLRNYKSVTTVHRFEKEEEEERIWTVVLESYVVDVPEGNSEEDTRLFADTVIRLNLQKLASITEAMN
`T86L`: “relative binding score” 23.3%.
Under “relative binding score”, `S42Q` is recorded as 41.9%.
`R45S`: “relative binding score” -4.57%.
`L91I`: “relative binding score” -6.28%.
For `E127A`, “relative binding score” read 54.7%.
`Y115G` — result for “relative binding score”: 9.55%.
Under “relative binding score”, `N149M` is recorded as 51.7%.
`E109C`: “relative binding score” 10.6%.
For `G21V`, “relative binding score” read 42.1%.
For `S117H`, “relative binding score” read 8.19%.
`C60W` — result for “relative binding score”: 4.48%.
For `L28Y`, “relative binding score” read -2.14%.
Under “relative binding score”, `E139H` is recorded as 13%.
